Experimental data from different studies.
Parts stem from different laboratories: compare values within a part only. ± gives the spread as reported.
Sequence of UniProt P9WKD9 (whole entry, looked up): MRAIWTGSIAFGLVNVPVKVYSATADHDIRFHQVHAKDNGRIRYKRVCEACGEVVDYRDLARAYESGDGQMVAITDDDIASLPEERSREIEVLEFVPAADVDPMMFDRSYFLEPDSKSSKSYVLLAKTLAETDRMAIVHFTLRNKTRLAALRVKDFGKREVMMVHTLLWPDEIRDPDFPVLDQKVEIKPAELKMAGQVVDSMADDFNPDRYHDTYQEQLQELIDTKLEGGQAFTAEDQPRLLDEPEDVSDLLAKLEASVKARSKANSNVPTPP

Sample 1
Target: HLA class I histocompatibility antigen, A alpha chain, allele A*68:01 (Homo sapiens, UniProt P04439)
Effect on: binding
Action: competitor
Quantity: IC50
CC[C@H](C)[C@H](NC(=O)[C@@H](NC(=O)[C@@H](N)CCCNC(=N)N)[C@@H](C)O)C(=O)N[C@@H](CCCCN)C(=O)N[C@H](C(=O)N[C@@H](Cc1ccccc1)C(=O)N[C@H](C(=O)N[C@H](C(=O)N[C@H](C(=O)O)C(C)C)[C@@H](C)O)[C@@H](C)O)C(C)C: 13.5 µM
CC(C)[C@H](NC(=O)[C@H](CC(N)=O)NC(=O)[C@H](CO)NC(=O)CNC(=O)[C@@H](N)[C@@H](C)O)C(=O)N[C@@H](Cc1ccccc1)C(=O)N[C@@H](CCC(N)=O)C(=O)N[C@H](C(=O)N[C@@H](CCCNC(=N)N)C(=O)O)[C@@H](C)O: 0.018 µM
CC[C@H](C)[C@H](NC(=O)[C@H](CCCNC(=N)N)NC(=O)[C@@H]1CCCN1C(=O)[C@H](C)N)C(=O)N[C@H](C(=O)N[C@@H](Cc1ccccc1)C(=O)NCC(=O)NCC(=O)N1CCC[C@H]1C(=O)O)[C@@H](C)O: 6.17 µM
CC(C)C[C@H](NC(=O)[C@H](CCC(=O)O)NC(=O)[C@H](CCCNC(=N)N)NC(=O)[C@@H](NC(=O)[C@@H](NC(=O)CNC(=O)[C@H](CO)NC(=O)[C@H](CO)NC(=O)[C@@H](N)Cc1c[nH]cn1)C(C)C)[C@@H](C)O)C(=O)O: 1.65 µM

Further values, each from its own experiment
main protease L115M (SARS-CoV-2) — dimer fraction (itself; native MS; 5 µM, apo): 15 ± 1%
COc1ccc(-c2cc(=O)c3c(OC)cc(OC)cc3o2)cc1 — EC50 (SARS-CoV-2; viral replication; post-treatment): 51 ± 1.01 µM
mku (Mycobacterium tuberculosis, UniProt P9WKD9) — subunits per oligomer (itself; SEC): 2
main protease S147A (SARS-CoV-2) — dimer fraction (itself; native MS; 5 µM, apo): 7 ± 1%
CC(C)=CCNc1ncnc2c1ncn2[C@@H]1O[C@H](CO)[C@@H](O)[C@H]1O — EC90 (SARS-CoV-2; Vero C1008, Omicron BA.5; 48 h): 1.59 ± 0.061 µM

For quick reference, copied from above (further values, each from its own experiment):
CC(C)=CCNc1ncnc2c1ncn2[C@@H]1O[C@H](CO)[C@@H](O)[C@H]1O — EC90 (SARS-CoV-2; Vero C1008, Omicron BA.5; 48 h): 1.59 ± 0.061 µM
